Measured values pooled from the literature.
Every numbered part comes from another study and shows a few of its results, in no order. Several values in a cell are separate wells, animals, samples, runs or records.
UniProt Q9BYP7, sequence (whole entry, looked up): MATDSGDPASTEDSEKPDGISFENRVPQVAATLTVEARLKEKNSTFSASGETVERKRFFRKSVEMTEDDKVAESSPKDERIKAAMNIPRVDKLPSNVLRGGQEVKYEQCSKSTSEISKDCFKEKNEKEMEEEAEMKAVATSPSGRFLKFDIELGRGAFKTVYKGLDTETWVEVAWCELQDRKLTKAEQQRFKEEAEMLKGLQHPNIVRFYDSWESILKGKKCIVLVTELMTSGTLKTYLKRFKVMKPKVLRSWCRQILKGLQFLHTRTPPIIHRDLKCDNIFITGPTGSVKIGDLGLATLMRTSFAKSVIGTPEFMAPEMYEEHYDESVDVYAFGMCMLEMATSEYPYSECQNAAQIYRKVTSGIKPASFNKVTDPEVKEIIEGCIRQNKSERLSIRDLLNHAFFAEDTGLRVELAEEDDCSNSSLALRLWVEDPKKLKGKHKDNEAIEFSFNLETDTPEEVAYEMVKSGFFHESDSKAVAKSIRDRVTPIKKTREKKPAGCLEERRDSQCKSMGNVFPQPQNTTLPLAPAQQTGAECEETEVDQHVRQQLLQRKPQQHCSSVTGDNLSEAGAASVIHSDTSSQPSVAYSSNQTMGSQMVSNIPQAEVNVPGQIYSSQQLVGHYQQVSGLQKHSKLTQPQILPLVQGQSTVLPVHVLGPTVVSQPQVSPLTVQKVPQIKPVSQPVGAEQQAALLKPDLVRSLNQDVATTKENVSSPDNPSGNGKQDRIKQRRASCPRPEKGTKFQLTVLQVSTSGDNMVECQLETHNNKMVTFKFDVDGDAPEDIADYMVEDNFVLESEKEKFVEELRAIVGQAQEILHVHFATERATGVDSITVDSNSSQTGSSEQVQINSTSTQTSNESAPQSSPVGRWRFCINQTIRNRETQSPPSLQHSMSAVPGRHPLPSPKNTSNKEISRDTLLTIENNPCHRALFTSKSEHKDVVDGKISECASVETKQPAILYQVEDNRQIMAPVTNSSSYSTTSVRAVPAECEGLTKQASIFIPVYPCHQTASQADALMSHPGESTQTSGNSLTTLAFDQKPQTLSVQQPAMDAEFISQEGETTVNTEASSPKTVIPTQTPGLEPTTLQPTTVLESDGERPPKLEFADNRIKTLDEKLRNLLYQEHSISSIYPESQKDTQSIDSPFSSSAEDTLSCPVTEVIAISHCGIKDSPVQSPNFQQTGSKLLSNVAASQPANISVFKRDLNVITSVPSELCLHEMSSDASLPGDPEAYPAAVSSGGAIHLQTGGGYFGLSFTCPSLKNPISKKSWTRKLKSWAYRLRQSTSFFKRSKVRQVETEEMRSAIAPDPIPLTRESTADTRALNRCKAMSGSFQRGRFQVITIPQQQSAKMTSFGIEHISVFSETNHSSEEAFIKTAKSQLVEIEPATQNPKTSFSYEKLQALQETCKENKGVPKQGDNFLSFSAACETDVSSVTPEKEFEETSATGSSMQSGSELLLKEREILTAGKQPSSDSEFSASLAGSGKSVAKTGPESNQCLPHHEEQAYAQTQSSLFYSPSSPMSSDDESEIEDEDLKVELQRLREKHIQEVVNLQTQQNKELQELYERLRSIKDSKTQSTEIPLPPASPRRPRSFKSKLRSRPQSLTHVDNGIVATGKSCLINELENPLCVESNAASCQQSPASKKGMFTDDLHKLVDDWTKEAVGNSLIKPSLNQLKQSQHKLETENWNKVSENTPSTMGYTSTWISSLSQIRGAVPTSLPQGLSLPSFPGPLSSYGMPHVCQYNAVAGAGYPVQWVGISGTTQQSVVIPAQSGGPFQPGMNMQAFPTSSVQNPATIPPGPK
UniProt O75716, sequence (whole entry, looked up): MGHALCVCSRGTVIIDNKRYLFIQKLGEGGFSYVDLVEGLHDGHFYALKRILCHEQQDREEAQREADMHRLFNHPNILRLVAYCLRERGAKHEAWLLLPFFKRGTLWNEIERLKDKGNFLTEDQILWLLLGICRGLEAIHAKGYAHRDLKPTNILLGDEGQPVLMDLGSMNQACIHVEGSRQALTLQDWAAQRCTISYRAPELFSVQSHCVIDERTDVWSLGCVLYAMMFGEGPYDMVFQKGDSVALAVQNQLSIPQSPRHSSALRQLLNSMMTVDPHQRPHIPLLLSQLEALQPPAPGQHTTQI

Study 1
Target: Membrane-associated tyrosine- and threonine-specific cdc2-inhibitory kinase (PKMYT1, Homo sapiens, UniProt Q99640)
UniProt Q99640, sequence (whole entry, looked up): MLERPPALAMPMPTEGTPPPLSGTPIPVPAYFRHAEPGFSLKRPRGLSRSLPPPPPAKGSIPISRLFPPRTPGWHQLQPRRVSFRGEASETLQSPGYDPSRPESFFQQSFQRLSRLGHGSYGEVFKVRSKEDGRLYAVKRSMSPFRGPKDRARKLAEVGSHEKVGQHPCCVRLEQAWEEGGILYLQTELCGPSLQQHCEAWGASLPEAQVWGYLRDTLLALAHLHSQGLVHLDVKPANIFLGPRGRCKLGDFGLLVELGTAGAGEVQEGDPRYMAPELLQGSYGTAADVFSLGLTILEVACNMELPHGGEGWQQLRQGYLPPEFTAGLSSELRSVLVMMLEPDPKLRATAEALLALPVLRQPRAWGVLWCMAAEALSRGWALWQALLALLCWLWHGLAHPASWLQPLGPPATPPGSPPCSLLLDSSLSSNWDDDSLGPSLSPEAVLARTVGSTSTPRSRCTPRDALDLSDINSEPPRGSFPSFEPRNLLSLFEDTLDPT
Effect on: binding
Technique: HTRF
Concentration: 0.46 nM
SMILES	inhibition
Cc1ccc(O)c(C)c1-c1cnc2[nH]c(-c3cnc(N4CCC(CCN5CCN(c6cc7c(cc6F)c(N6CCC(=O)NC6=O)nn7C)CC5)CC4)nc3)cc2c1C#N	12.7% and 4.65%
Cc1ccc(O)c(C)c1-c1cnc2[nH]c(-c3cnc(N4CCC(CN5CCN(c6c(F)cc(NC7CCC(=O)NC7=O)cc6F)CC5)CC4)nc3)cc2c1C#N (racemic)	-1.54% and -6.58%
Cc1ncc(-c2cc3c(N)c(-c4c(C)ccc(O)c4C)cnc3[nH]2)cn1	-8.64% and -6.06%
Cc1ccc(O)c(C)c1-c1cnc2[nH]c(-c3cnc(N4CCC(CCN5CCN(c6ccc(N7CCC(=O)NC7=O)cc6F)CC5)CC4)nc3)cc2c1C#N	9.61% and 1.74%
Cc1ccc(O)c(C)c1-c1cnc2[nH]c(-c3cnc(N4CCC(CCN5CCN(c6ccc7c(c6)C(=O)N(C6CCC(=O)NC6=O)C7=O)CC5)CC4)nc3)cc2c1C#N (racemic)	4.88% and 3.45%
Cc1ccc(O)c(C)c1-c1cnc2[nH]c(-c3cnc(N4CCC(CN5CCN(c6ccc(NC7CCC(=O)NC7=O)c(F)c6)CC5)CC4)nc3)cc2c1C#N (racemic)	2.89% and 3.42%

Study 2
SMILES: O=c1[nH]c(=S)n(C[C@H]2CCCO2)c2nc[nH]c12
Target: Myeloperoxidase (MPO, Homo sapiens, UniProt P05164)
UniProt P05164, sequence (whole entry, looked up): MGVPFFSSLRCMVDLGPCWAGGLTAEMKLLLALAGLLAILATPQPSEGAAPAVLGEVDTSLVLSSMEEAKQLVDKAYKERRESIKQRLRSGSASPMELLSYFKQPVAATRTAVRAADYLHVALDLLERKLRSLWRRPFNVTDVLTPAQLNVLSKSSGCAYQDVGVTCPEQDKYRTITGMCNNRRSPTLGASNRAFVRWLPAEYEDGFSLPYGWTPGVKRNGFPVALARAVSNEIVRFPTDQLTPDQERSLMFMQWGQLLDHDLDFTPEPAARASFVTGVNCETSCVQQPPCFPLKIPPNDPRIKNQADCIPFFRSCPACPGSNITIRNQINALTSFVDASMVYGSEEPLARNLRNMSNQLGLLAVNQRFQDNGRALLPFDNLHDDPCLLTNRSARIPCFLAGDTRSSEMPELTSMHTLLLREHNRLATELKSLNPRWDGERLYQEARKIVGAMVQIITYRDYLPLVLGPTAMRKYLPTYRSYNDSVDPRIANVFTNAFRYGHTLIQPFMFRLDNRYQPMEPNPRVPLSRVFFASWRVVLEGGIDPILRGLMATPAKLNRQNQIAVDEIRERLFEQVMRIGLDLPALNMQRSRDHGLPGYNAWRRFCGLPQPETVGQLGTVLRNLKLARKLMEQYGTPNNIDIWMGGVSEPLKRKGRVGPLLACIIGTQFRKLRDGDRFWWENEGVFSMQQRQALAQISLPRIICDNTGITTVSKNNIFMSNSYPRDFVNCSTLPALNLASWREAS
Effect on: enzyme activity
concentration	inhibition
0.0412 µM	32.7% and 21.8% and 42.7% and 38.2% and 47.1% and 44.9%
0.0046 µM	11.2% and 12.7% and -16.8% and -8.33% and -0.876%
0.0005 µM	-15.1% and -31.2% and -9.72% and -8.91% and -0.666% and -17.9% and -24.9%

Study 3
Structure (SMILES): CCC1(c2cccc(-c3cn(C)nc3C)c2)C2=C(Nc3n[nH]cc31)C(F)C(C)(C)CC2=O (single isomer, unassigned)
Concentration: 1 µM
target	effect on	technique	baseline	remaining binding [%]
WNK3 (Homo sapiens, UniProt Q9BYP7)	binding	competition with immobilised ligand		100
RET (Homo sapiens, UniProt P07949)	binding	competition with immobilised ligand		92
MUSK (Homo sapiens, UniProt O15146)	kinase binding	KINOMEscan	DMSO control	100
NTRK1 (Homo sapiens, UniProt P04629)	binding	competition with immobilised ligand		100
MAPKAPK2 (Homo sapiens, UniProt P49137)	kinase binding	KINOMEscan	DMSO control	100
EGFR (Homo sapiens, UniProt P00533, G719S)	binding	competition with immobilised ligand		100
CDK5 (Homo sapiens, UniProt Q00535)	binding	competition with immobilised ligand		96
DDR2 (Homo sapiens, UniProt Q16832)	binding	competition with immobilised ligand		95
Tyrosine-protein kinase ABL1, phosphorylated (ABL1, Homo sapiens, UniProt P00519, H396P)	kinase binding	KINOMEscan	DMSO control	80
OXSR1 (Homo sapiens, UniProt O95747)	binding	competition with immobilised ligand		100
PIK3C2G (Homo sapiens, UniProt O75747)	kinase binding	KINOMEscan	DMSO control	76
EPHB3 (Homo sapiens, UniProt P54753)	kinase binding	KINOMEscan	DMSO control	100
SYK (Homo sapiens, UniProt P43405)	kinase binding	KINOMEscan	DMSO control	100
TAOK1 (Homo sapiens, UniProt Q7L7X3)	kinase binding	KINOMEscan	DMSO control	100
STK16 (Homo sapiens, UniProt O75716)	binding	competition with immobilised ligand		94
STK4 (Homo sapiens, UniProt Q13043)	binding	competition with immobilised ligand		95
Tyrosine-protein kinase ABL1, phosphorylated (ABL1, Homo sapiens, UniProt P00519, Y253F)	kinase binding	KINOMEscan	DMSO control	71
FGFR2 (Homo sapiens, UniProt P21802)	binding	competition with immobilised ligand		100
MYLK (Homo sapiens, UniProt Q15746)	binding	competition with immobilised ligand		100
MAP3K3 (Homo sapiens, UniProt Q99759)	kinase binding	KINOMEscan	DMSO control	96

Study 4
Compound: C[C@@H]1CN(c2ccc(-c3cc(C(=O)NCCOCCOCCOCCOCCNC(=O)Cn4cc(-c5[nH]cc(C(=O)N[C@@H](CC(N)=O)c6ccc(F)c(Cl)c6)c5-c5ccc(Cl)cc5F)cn4)ccc3F)cc2NC(=O)c2c[nH]c(=O)cc2C(F)(F)F)C[C@H](C)N1C
Effect on: thermal unfolding
Technique: differential scanning fluorimetry
Concentration: 5.5 µM
Direction: higher = more unfolded
DCAF1: DDB1- and CUL4-associated factor 1 (DCAF1, Homo sapiens, UniProt Q9Y4B6)
UniProt Q9Y4B6, sequence (whole entry, looked up): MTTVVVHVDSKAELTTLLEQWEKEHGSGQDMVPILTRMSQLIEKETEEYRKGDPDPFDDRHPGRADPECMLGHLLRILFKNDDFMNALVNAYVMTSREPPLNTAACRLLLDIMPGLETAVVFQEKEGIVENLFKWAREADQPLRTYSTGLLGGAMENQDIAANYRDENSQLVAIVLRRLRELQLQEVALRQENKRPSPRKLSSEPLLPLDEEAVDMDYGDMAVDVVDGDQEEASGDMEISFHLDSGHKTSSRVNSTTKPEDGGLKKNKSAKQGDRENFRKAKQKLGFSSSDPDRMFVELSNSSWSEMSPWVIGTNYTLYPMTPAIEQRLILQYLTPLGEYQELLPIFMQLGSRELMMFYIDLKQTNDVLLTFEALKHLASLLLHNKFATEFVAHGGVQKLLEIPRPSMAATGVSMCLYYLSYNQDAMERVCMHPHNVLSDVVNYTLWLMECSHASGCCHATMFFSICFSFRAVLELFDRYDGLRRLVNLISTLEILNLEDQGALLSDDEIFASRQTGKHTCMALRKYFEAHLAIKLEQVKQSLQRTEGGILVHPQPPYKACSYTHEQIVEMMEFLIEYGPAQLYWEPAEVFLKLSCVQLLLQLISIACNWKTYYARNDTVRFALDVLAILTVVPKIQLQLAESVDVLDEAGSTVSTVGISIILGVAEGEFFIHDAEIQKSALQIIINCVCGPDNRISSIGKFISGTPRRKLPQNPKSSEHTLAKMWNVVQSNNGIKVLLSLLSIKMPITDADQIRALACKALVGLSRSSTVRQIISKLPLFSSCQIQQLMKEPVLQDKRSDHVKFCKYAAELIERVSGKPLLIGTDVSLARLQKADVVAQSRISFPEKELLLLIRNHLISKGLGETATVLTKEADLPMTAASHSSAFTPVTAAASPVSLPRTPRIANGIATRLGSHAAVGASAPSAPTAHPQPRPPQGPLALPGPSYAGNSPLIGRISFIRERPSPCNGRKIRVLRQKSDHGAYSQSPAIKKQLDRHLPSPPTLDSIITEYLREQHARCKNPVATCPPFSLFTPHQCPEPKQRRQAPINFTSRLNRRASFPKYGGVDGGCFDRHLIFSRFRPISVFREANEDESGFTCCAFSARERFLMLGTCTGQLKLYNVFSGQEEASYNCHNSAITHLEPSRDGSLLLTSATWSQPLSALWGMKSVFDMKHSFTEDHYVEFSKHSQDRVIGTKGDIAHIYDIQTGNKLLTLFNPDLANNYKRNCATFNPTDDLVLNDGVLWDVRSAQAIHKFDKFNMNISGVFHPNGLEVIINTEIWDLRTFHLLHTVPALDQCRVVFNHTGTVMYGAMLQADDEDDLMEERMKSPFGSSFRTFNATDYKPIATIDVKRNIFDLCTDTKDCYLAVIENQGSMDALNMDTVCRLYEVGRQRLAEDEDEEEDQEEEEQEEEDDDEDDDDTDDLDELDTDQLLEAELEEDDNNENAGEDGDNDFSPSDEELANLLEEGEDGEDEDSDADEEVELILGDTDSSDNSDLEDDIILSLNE
WDR5: WD repeat-containing protein 5 (WDR5, Homo sapiens, UniProt P61964)
target	temperature	SYPRO Orange fluorescence [a.u.]
DCAF1	59.81 °C	36900
DCAF1	70.01 °C	54500
DCAF1	90.81 °C	34300
DCAF1	88.41 °C	36600
DCAF1	47.2 °C	13300
DCAF1	60.81 °C	42000
WDR5	71.81 °C	7460
WDR5	78.41 °C	18500
DCAF1	79.01 °C	45100
WDR5	82.21 °C	30600
DCAF1	61.81 °C	46900

Some of these lines once more (study 3):
target	effect on	technique	baseline	remaining binding [%]
MAPKAPK2 (Homo sapiens, UniProt P49137)	kinase binding	KINOMEscan	DMSO control	100
STK16 (Homo sapiens, UniProt O75716)	binding	competition with immobilised ligand		94
MYLK (Homo sapiens, UniProt Q15746)	binding	competition with immobilised ligand		100
